Assay results from different studies.
Each line is one published result; not all experiments were run side by side. “And” joins repeats or separate records; there may be more than shown. Numbers after ± are the reported error.

| Structure (SMILES) | assay | system | conditions | how to read | measurement | value |
| --- | --- | --- | --- | --- | --- | --- |
| [Cl-].[Cl-].[Pt+2].[Ru+2].c1ccc(-c2nc3ccccc3nc2-c2ccccn2)nc1.c1cnc2c(c1)ccc1cccnc12.c1cnc2c(c1)ccc1cccnc12 | chloride substitution, UV-vis kinetics | aqueous buffer | concentration not given, pH 7.2, first substitution step, together with: L-methionine |  | negative activation entropy | 175 ± 6 J/(mol·K) |
| O=C(/C=C/c1ccc(O)c(O)c1/C=C/c1ccc(O)c(O)c1)O[C@H](Cc1ccc(O)c(O)c1)C(=O)O |  | isolated myocardial tissue | 10 µM |  | LVDP | 52.6 mmHg |
| CC#Cc1cncc(-c2ccc3c(c2)[C@@]2(N=C(C)C(N)=N2)[C@]2(CC[C@H](OC)CC2)C3)c1 | measured: Aβ40 and Aβ42 | Dunkin-Hartley guinea pigs, plasma | oral, dose not given |  | time to maximum effect | ~8 h |
| CN(C(=O)n1cnc(-c2ccc[n+]([O-])c2)c1)C1CCCCC1 | measured: LEA | human, plasma | 20 mg once daily, day 10 |  | AUC(0-tau) | 222 ng·h/mL |
| CC(=O)Oc1cc2c(s1)CCN(C(C(=O)C1CC1)c1ccccc1F)C2 (stereo not shown) | platelet aggregation, light transmittance aggregometry | human, platelet-rich plasma | dose not given, 30 min, IPA above 80 %, together with: TRAP 5 µM | baseline: patients | patients with IPA above threshold | 0% |
| CC(C)(C)c1cc(C(C)(C)C)c(NC(=O)c2c[nH]c3ccccc3c2=O)cc1O | ELISA | BALB/c mice, small intestine | ip, dose not given, given before gliadin, together with: gliadin |  | IL-17A level | 64700 pg/mL |
| CCCCCCCC(=O)OC[C@H](NC(=O)[C@H](CO)NC(=O)CN)C(=O)N[C@@H](Cc1ccccc1)C(=O)N[C@@H](CC(C)C)C(=O)N[C@@H](CO)C(=O)N1CCC[C@H]1C(=O)N[C@@H](CCC(=O)O)C(=O)N[C@@H](Cc1c[nH]cn1)C(=O)N[C@@H](CCC(N)=O)C(=O)N[C@@H](CCCNC(=N)N)C(=O)N[C@H](C(=O)N[C@@H](CCC(N)=O)C(=O)N[C@@H](CCC(N)=O)C(=O)N[C@@H](CCCNC(=N)N)C(=O)N[C@@H](CCCCN)C(=O)N[C@@H](CCC(=O)O)C(=O)N[C@@H](CO)C(=O)N[C@@H](CCCCN)C(=O)N[C@@H](CCCCN)C(=O)N1CCC[C@H]1C(=O)N1CCC[C@H]1C(=O)N[C@@H](C)C(=O)N[C@@H](CCCCN)C(=O)N[C@@H](CC(C)C)C(=O)N[C@@H](CCC(N)=O)C(=O)N1CCC[C@H]1C(=O)N[C@@H](CCCNC(=N)N)C(=O)O)C(C)C |  | C57BL/6N mice, male | subcutaneous, 2 mg/kg, 1 h, standard chow | baseline: saline | food intake increase | ~175% |
| CCOc1c([C@H](C)n2nc(C)c3c(N)ncnc32)cc(Cl)c(F)c1[C@@H]1CNC(=O)C1 | Olink proximity extension proteomics, measured: IL10 | human FL or MZL patients, plasma | dose not given, week 8 | baseline: baseline | plasma protein level change | -51% |
| NC/C(=C\F)COc1cccc(Cn2c(=S)[nH]c(=O)c3[nH]cnc32)c1 |  | mouse, unilateral ureteral obstruction, right kidney (control) | dose not given |  | fibrosis area | 1.09% and 0.74% and 0.27% and 0.41% and 0.6% and 1.92% and 1.2% |
| Cc1n[nH]c2ccc(-c3cc(OC[C@@H](N)Cc4ccccc4)cnc3-c3ccoc3)cc12 | kinase binding, competitor, MIB/MS competition, measured: SHA3 | Candida albicans cell lysate | 10 µM | baseline: DMSO | log2 fold change | -1.8 |
| CC(C)[C@H](C(=O)Nc1ccc(C(=O)NO)cc1)c1ccccc1 | volumetric MRI | human, left IAC schwannoma | dose not given, day 23 | baseline: baseline | tumour volume change | 3.85% |
| CCN(Cc1nc2c(N)nc3cc(-c4cc[nH]n4)ccc3c2[nH]1)C(C)=O | Luminex, measured: IL-1β | cancer patients, serum | 2000 µg monotherapy, first 24 h | baseline: baseline | fold change | 6.6 |
| CSCCNc1nc(SCCC(F)(F)F)nc2c1ncn2[C@@H]1O[C@H](COP(=O)(O)OP(=O)(O)C(Cl)(Cl)P(=O)(O)O)[C@@H](O)[C@H]1O | ADP-induced platelet aggregation, Multiplate aggregometry | human patients, whole blood | dose not given, 15 min |  | platelet aggregation AUC | 28.1 ± 14.1 U |
| Cc1ccc(C(=O)OCc2ccc([C@@H](CN)C(=O)Nc3ccc4cnccc4c3)cc2)c(C)c1 | tonometry | NZW rabbit, magnetic bead-induced ocular hypertension | ocular, 0.02%, 32 h |  | IOP | 34.4 mmHg |
| OC(CCN1CCCCC1)(c1ccccc1)C1CC2C=CC1C2 (stereo not shown) | resting-state EEG | healthy elderly humans | oral, 2 mg, eyes closed, LS mean | baseline: baseline | change in EEG Alpha1-power Fz-Cz | -20.2% |
| Cn1nnc2c(C(N)=O)ncn2c1=O |  | mouse subcutaneous GBM PDX sample F | subcutaneous, dose not given |  | T/C ratio | -68% |
| CC1(C)CCC(CN2CCN(c3ccc(C(=O)NS(=O)(=O)c4ccc(NCC5CCOCC5)c([N+](=O)[O-])c4)c(Oc4cnc5[nH]ccc5c4)c3)CC2)=C(c2ccc(Cl)cc2)C1 | cell killing, flow cytometry PI exclusion | canine blood CD21+ B cells, dog 33 | 24 h |  | EC50 | 83 nM |
| N#Cc1ccc2c(c1)[C@H]1CCCN(C(=O)c3ccc4[nH]cnc4c3)[C@H]1C2 |  | T2DM patients with overweight or obesity, urine | oral, 360 mg, day 14, 0-24 h, multiple dosing, adjusted geometric mean | baseline: baseline day -1, -24-0 h | total urinary corticosteroid excretion | 221% |
| CO[C@H]1CC[C@H](N2C(=O)CNc3ncc(-c4ccc(C(C)(C)O)nc4)nc32)CC1 | flow cytometry | stimulated monocytes, human, blood | 45 mg single dose, 1.5 h, mean | baseline: baseline | pAKT change from baseline | -55.2% |
| CN[C@@H]1COc2c(S(=O)(=O)NC(=O)Nc3c4c(cc5c3CCC5)CCC4)cnn2C1 | measured: IL-18 | human participants, whole blood ex vivo | 900 mg twice daily, multiple doses, 48 h, IL-18, circulating, adjusted for, together with: LPS/ATP | baseline: baseline | inhibition | 99.7% |

| Structure (SMILES) | assay | system | conditions | how to read | measurement | value |
| --- | --- | --- | --- | --- | --- | --- |
| N#Cc1ccc2c(c1)[C@H]1CCCN(C(=O)c3ccc4[nH]cnc4c3)[C@H]1C2 |  | human, Phase II trial | oral, 240 mg once daily, day 28, adjusted mean, SE |  | systolic blood pressure change | -2.3 mmHg |
| CC(c1cc2ccccc2s1)N(O)C(N)=O (stereo not shown) |  | human blood | 3 µM, together with: A23187 |  | LTB4 level | 1170 ± 577 pg/mL |
| CC(C)NCC(O)c1ccc(O)c(O)c1 (stereo not shown) |  | ventricular cardiomyocytes, C57BL/6 mouse | dose not given, 0.7 s |  | sarcomere length | 1.72 µm |
| COc1cc2cc(-c3ccc(CC(=O)Nc4cc(C(C)(C)C(F)(F)F)no4)cn3)cnc2cc1OC | RECIST v1.1 | human RET-mutant medullary thyroid cancer | 75 mg, phase I |  | best overall response CR | 0% |
| COC[C@@H](c1ccc(C(F)(F)F)cc1)N1CCN(C2(C)CCN(C(=O)c3c(C)ncnc3C)CC2)C[C@@H]1C |  | HIV-1 infected patients, plasma | 10 mg, week 24, with optimized background regimen | baseline: baseline | change in HIV-1 RNA | -2.21 log10 copies/mL |
| C[C@H]1C[C@H]2CSC(N)=N[C@@]2(c2nc(NC(=O)c3ccc(OC(F)F)cn3)cs2)CO1 | measured: Aβ1-40 | healthy adults, plasma | 3 mg single dose, 4 h post-dose | baseline: placebo | percent change from baseline | -41.1% |
| C[C@H](Oc1ccc(Br)cc1-c1ccon1)C(=O)O | handgrip dynamometry | healthy human males | 400 mg twice daily, multiple doses, from 90% to 50% of MVC | baseline: placebo | grip release time | -13.3 ms |
| NCC(=O)Nc1cncc(-c2nn3c(=O)cc(N4CCNCC4)nc3s2)c1 | ADP-induced platelet aggregation, light transmission aggregometry | human, stable CAD on aspirin, platelets ex vivo | subcutaneous, 0.075 mg/kg, 30 min post-dose, together with: ADP 20 µM |  | inhibition | 88.5% |
| C[C@H]1O[C@@H](O[C@H]2CC[C@@]3(C)[C@@H](CC[C@]4(C)[C@@H]3C=C[C@]35OC[C@@]6(CCC(C)(C)C[C@H]63)[C@@H](O)C[C@]54C)[C@]2(C)CO)[C@H](O)[C@@H](O[C@@H]2O[C@H](CO)[C@@H](O)[C@H](O)[C@H]2O)[C@H]1O | Western blot, measured: PGC-1α | mice, normal control diet, liver | dose not given, high dose, unit not given | baseline: β-actin | protein level | 0.802 and 0.961 and 1.47 |
| COC(=O)CCc1ccc(OCC(O)CNC(C)C)cc1 (stereo not shown) |  | healthy male humans | dose not given, 5 min, together with: saline | baseline: baseline | systolic blood pressure change | -1.6 mm Hg |
| O=C1N(Cc2ccccc2Cl)c2ccccc2C12NN=C(c1ccccc1)S2 (stereo not shown) |  | SK-BR-3 xenograft, mouse | intravenous, 952 mg/kg twice daily, subcutaneous xenograft | baseline: vehicle | T/C | 72% |
| COc1ccc(-c2cncc(N[C@@H](C)c3cccc(NC(=O)c4cncc(C)c4)c3)n2)cc1OC | measured: rno-miR-212-3p | rat SU5416/hypoxia model, lung | dose not given, unit not given | baseline: SU5416/hypoxia vehicle | delta delta Ct | -0.599 |
| O=C(COc1ccc(Cl)cc1)NC12CC(c3nnc([C@H]4C[C@@H](OC(F)(F)F)C4)o3)(C1)C2 |  | healthy human, PBMC | oral, 45 mg single dose, day 1, 4 h post-dose, median, together with: sodium arsenite ex vivo | baseline: baseline | ATF4 protein change | -38.2% |
| O=C(O)CNC(=O)Cc1ccccc1 |  | ventricular cardiomyocytes, C57BL/6 mouse | dose not given, 0.124 s |  | sarcomere length | 1.71 µm |
| COc1cc(Nc2ncc3c(n2)-c2ccc(Cl)cc2C(c2c(F)cccc2OC)=NC3)ccc1C(=O)O |  | mouse, NB-1771 neuroblastoma xenograft | oral, 5.2 mg/kg, day 21 | baseline: vehicle | relative tumour volume T/C | 2.08 |
| [Cl-].[Cl-].[Pt+2].[Ru+2].c1ccc(-c2nc3cc4ccccc4cc3nc2-c2ccccn2)nc1.c1cnc2c(c1)ccc1cccnc12.c1cnc2c(c1)ccc1cccnc12 | chloride substitution, UV-vis kinetics | aqueous buffer | concentration not given, pH 7.2, first substitution step, together with: guanosine 5'-monophosphate |  | negative activation entropy | 157 ± 10 J/(mol·K) |
| O[C@H]1CCCN[C@@H]1CCCn1cnc2c(Cl)c(Cl)ccc21 | ELISA, measured: Pro-C3 | healthy human volunteers, serum | intraduodenal, 25 mg twice daily, day 14, multiple ascending dose |  | AUC(0-tau) | 119 ng·h/mL |
| O=C1CCc2ccc(OCCCCN3CCN(c4cccc(Cl)c4Cl)CC3)cc2N1 |  | patients CYP2D6 UM | 12 months |  | stopping or switching | 50% |
| C=CCn1c(=O)c2cnc(Nc3ccc(N4CCN(C)CC4)cc3)nc2n1-c1ccc2c(n1)[C@@](O)(CC)CC2 |  | NCI-H1944 xenograft, NOD/SCID mice | oral, 80 mg/kg, day 28, once daily days 0-9 and 18-27 |  | tumour volume difference | 711 ± 50.3 mm3 |
| COC(=O)c1c(C)[nH]c(C)c1C(=O)c1ccccc1Cc1ccccc1 | high-content microscopy | DRG neurons, rat | dose not given, unit not given, together with: DAMGO 3 | baseline: no DAMGO | serotonin-induced response | 0.343 and 0.353 and 0.521 and 0.41 |

Some of these lines once more:
| Structure (SMILES) | assay | system | conditions | how to read | measurement | value |
| --- | --- | --- | --- | --- | --- | --- |
| COC[C@@H](c1ccc(C(F)(F)F)cc1)N1CCN(C2(C)CCN(C(=O)c3c(C)ncnc3C)CC2)C[C@@H]1C |  | HIV-1 infected patients, plasma | 10 mg, week 24, with optimized background regimen | baseline: baseline | change in HIV-1 RNA | -2.21 log10 copies/mL |
| CC(c1cc2ccccc2s1)N(O)C(N)=O (stereo not shown) |  | human blood | 3 µM, together with: A23187 |  | LTB4 level | 1170 ± 577 pg/mL |
| [Cl-].[Cl-].[Pt+2].[Ru+2].c1ccc(-c2nc3cc4ccccc4cc3nc2-c2ccccn2)nc1.c1cnc2c(c1)ccc1cccnc12.c1cnc2c(c1)ccc1cccnc12 | chloride substitution, UV-vis kinetics | aqueous buffer | concentration not given, pH 7.2, first substitution step, together with: guanosine 5'-monophosphate |  | negative activation entropy | 157 ± 10 J/(mol·K) |
| O=C(/C=C/c1ccc(O)c(O)c1/C=C/c1ccc(O)c(O)c1)O[C@H](Cc1ccc(O)c(O)c1)C(=O)O |  | isolated myocardial tissue | 10 µM |  | LVDP | 52.6 mmHg |
| N#Cc1ccc2c(c1)[C@H]1CCCN(C(=O)c3ccc4[nH]cnc4c3)[C@H]1C2 |  | human, Phase II trial | oral, 240 mg once daily, day 28, adjusted mean, SE |  | systolic blood pressure change | -2.3 mmHg |
